Measurements of several laboratories.
Each numbered part is a random draw from the data of one study; scales do not carry over between parts.

Study 1
Target: RNA binding protein fox-1 homolog 2, RRM domain, GST-SBP tag (RBFOX2, Homo sapiens, UniProt O43251-10, residues 100-194)
Technique: RNA Bind-n-Seq
Form: RNA
Medium: in vitro
Tested at: 365 nM
Setting: natural RNA segment, single round, ends assumed
Relative to: no-protein control
Reading: higher = stronger binding
Constant ends, left off below: GGGAGUUCUACAGUCCGACGAUC … UGGAAUUCUCGGGUGCCAA
Construct (chain): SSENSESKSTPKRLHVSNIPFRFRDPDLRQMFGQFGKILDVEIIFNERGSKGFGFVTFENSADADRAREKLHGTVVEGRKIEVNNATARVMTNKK
`CAGGUAGGCAGCAGACAGACAGAUGACAGAUAGAUCUCCAUGGUAUGUUUUCCAUUUUCUUUUGUCAGAGGUGAGCUUGAAUGUGAUUAUCUGUAAAUUUGCUCAAAUAA` — result for “RBNS enrichment (R)”: 6.66.
Under “RBNS enrichment (R)”, `CCAACUUUGACGGAUUUCUGUGUGGAGAGUUGAGAUUUCUAUUUCCUGUUUUGGUUUAACAGUUUCUGAGAUACGUGUGUUAUAGGUUCAUUUACUACGAUCUGUCCACA` is recorded as 0.382.
`UUGCAGUCAUUUGGUGCUCUGCUAACCAUUUAUAUAAAACUUAAAAACAAGAGAAAAGAAAAAUCAAUUAGAUCUAAACAGUUAUUUCUGUUUCCUAUUUAAUACAGCUG` — result for “RBNS enrichment (R)”: 0.37.
`AGCUUUUUGUGCGUCUGUGAAAUGUUUUACAGUGUUUCUCAUCAUCUGUUUCCCAGCAAGGUCUUUUUUUUUUCUACAUUGAAGUUCUGUCUAUGUAUCUUAAUCACAAA`: “RBNS enrichment (R)” 1.01.
For `UCUGAGAGAGGCUAAAAUGUUUUCAGCUAGGAACAAAUCUUCCUGGUCGAAAGUUAGUAGGAUAUGCCUGCUCUUUGGCCUGAUGACCAAUUUUAACUUAGAGCUUUUUU`, “RBNS enrichment (R)” read 0.393.
For `UGAAGGACAGUCCCUCAGCCUUUCCAUUGGUUCCUUUGUGUUCAGUGCACCCAGCCUUUGAACAGAGCCUAGGGUCUGUAUGCCAUGACACUGGAAGUCAUAGAAAUUUC`, “RBNS enrichment (R)” read 0.349.
`CUUGCAGCUAGCCGAGAUAGCACCACUGCACUCCAGCCUGGGCGACAGUGAGACUCCGUUUCAAAAAAAAAAGCAUCAGGCCCAUGAAGUAUCAAAAACCAGGUUAGGAG`: “RBNS enrichment (R)” 4.41.
For `CUACUUACGCGAACACAGCAGGUUGGUGUGGCUGGCUAACUAGGACCUCUCGAAAGUCUCUGUGGGGGCAUGAGGGAGAAAAGGCCAUUGGGAGAAUUACUGCCUUUACU`, “RBNS enrichment (R)” read 0.344.
For `UUCCUUAACUCUAGGUUUGUAGUCUGUUUUAAAUUAGGAUUAGUUCCUGCAUUCUGAAAUACAUUGGCCUAGAACAUUUUAUCCCAGGCAUUUUUGAAUAGAAAACAGUU`, “RBNS enrichment (R)” read 0.334.
`GGGCUCUAGAGAAAGCAGCUAGUGGUUUCUUUGUCUUGGAACAGGCAGGGUAAGGGUGGGCACAUUUAGGCCUCUUCUCCUCACACUGGCCCUGCCAUCAGCUUUUGGGG`: “RBNS enrichment (R)” 0.521.
For `UUCCUUUUAUGCUAUCACACACUACUGUCACCGAGACACUGACAAAGUGCUGGGUUCUCCAAGAGCGAUGGCGGCGUCUGUGUAGGUGCUCGCCCACCGUUACCCUCUUC`, “RBNS enrichment (R)” read 0.606.
Under “RBNS enrichment (R)”, `AGUAUUGCACCGCGAAUGAUGAGUGUUUACUAUUUUACAGGAGUCAACAAGAUAAUUAAAUAUCUUGGUGUCUUGUUUCUAUUGUGUGGCUUUUUAAAAAUGACAAAUAU` is recorded as 0.835.

Study 2
Target: Histone acetyltransferase KAT6A, winged helix 1, GST fusion (KAT6A, Homo sapiens, UniProt Q92794, residues 1-85)
Technique: protein binding microarray
Form: double-stranded DNA, one strand shown
Medium: in vitro
Tested at: not given
Setting: 8-mer, flanks averaged, mean of 2 arrays, mostly near background
Relative to: not given
Reading: higher = stronger binding
Residues (chain): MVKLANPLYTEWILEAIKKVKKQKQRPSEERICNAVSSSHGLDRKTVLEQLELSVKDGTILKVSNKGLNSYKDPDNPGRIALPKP
For `CGGACGAG`, the E-score was -0.0119.
With `CAAGTCTG` the E-score was -0.288.
For `CCCAGCCC`, the E-score was -0.0812.
With `ACTAAGAG` the E-score was -0.114.
For `CTGGATTC`, the E-score was -0.186.
`ACGCAAAC` gave an E-score of 0.0936.
`AGATCCAC` gave an E-score of -0.207.
The E-score of `AACCCCAT` is reported as -0.178.
The E-score of `CACTTGCC` is reported as -0.0862.
The E-score of `CAGCCAAA` is reported as -0.195.
`CCACCATC` has an E-score of -0.103.
The E-score of `AGGAAGTG` is reported as -0.117.
With `AGAAACAA` the E-score was -0.16.
With `ATTATCCC` the E-score was -0.191.
For `CAACAAAC`, the E-score was -0.0064.
`GATACGAA` has an E-score of -0.157.
`AGCCAGTC` gave an E-score of -0.155.
`GATCAACA` gave an E-score of -0.105.
For `GAGCAGCC`, the E-score was -0.0831.
`GCCGTGAC` gave an E-score of 0.357.

Study 3
Target: Centromere-binding protein 1, full length, N-terminal tag (CBF1, Saccharomyces cerevisiae, UniProt P17106, residues 1-351)
Sequence of UniProt P17106 (whole entry, looked up): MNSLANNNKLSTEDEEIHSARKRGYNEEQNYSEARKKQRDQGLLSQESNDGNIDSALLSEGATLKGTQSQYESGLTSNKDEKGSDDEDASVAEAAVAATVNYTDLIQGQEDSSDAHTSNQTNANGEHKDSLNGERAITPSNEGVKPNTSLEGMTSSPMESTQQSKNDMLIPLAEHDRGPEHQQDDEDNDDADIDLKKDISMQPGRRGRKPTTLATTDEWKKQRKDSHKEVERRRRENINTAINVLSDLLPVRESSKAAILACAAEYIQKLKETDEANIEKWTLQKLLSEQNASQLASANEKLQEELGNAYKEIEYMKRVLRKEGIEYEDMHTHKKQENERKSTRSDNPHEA
Technique: protein-binding microarray
Form: double-stranded DNA, one strand shown
Medium: in vitro
Tested at: 0.8 µM
Setting: whole 60-bp probe, no competitor
Reading: higher = stronger binding
Constant ends, left off below: … GTCTTGATTCGCTTGACGCTGCTG
`TGTACGAAGCTATTGATCATGATTATAGTAGTTAGG` gave a fluorescence intensity of 551 a.u.
`GAAAAAAAAGAATGTCACATGGAACGAGGTTACTAG` has a fluorescence intensity of 1900 a.u.
The fluorescence intensity of `CTAAGAGTGGCTGATCATGTGTAATAGGCGAATTTC` is reported as 956 a.u.
`GAACAGGCAAATATCATGGTGACACGCTTATAGTAG` gave a fluorescence intensity of 553 a.u.
With `GAATTATTGCCCTCAGCCGTGCCAATAAGAATATAG` the fluorescence intensity was 500 a.u.
For `GAAATGGAATTACCTCACGTTGTTCACATTAGTTAG`, the fluorescence intensity was 611 a.u.
With `GAATCATAAGAGAGGAGCGTGATCTGTAATTCCTAG` the fluorescence intensity was 1490 a.u.
`GAAGACTATTTATCACGTGTGATTATGTGGTCTTAG` has a fluorescence intensity of 6240 a.u.
With `GAATTGGTTCTCCATCACGTGATAAACATTTCTTAG` the fluorescence intensity was 35100 a.u.
With `CTAATGCCATCTTTTGACGTCATACATAGTTGTTTC` the fluorescence intensity was 532 a.u.
`GAAGTAACAGAACATCACGCTACAATCTTAATCTAG` has a fluorescence intensity of 627 a.u.
For `CTATTTTGCGATGCGATGGTGATGAAAAAAAAATTC`, the fluorescence intensity was 568 a.u.
`CTAACCTTTGCATGTCACGTGAACCAACAGAACTTC` gave a fluorescence intensity of 22700 a.u.
For `CCTAACTACTATACAGCTGTTATATAGCTTCGTACA`, the fluorescence intensity was 483 a.u.
`CTAATGGTCTATCATCAGGTTCCCTTAACCGCTTTC` gave a fluorescence intensity of 516 a.u.
`GAACAAGATTATGTTCTCGTGATTGACAACTTATAG` has a fluorescence intensity of 1540 a.u.
The fluorescence intensity of `CTAAGCCACTACAGCTACGTGTGATCATATAATTTC` is reported as 742 a.u.

Study 4
Target: RING finger protein unkempt homolog, zinc fingers 1-6, GST-SBP tag (UNK, Homo sapiens, UniProt Q9C0B0, residues 30-357)
Sequence of UniProt Q9C0B0 (30-357, looked up): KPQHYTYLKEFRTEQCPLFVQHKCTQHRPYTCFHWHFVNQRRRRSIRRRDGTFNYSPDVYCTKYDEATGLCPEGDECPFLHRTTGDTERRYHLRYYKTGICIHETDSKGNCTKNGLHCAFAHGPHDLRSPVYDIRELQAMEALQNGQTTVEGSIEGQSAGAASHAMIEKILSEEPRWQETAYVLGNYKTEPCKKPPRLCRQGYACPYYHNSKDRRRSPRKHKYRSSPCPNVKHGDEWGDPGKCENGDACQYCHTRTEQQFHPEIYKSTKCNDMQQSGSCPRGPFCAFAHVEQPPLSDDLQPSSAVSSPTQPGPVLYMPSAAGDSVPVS
Technique: RNA Bind-n-Seq
Form: RNA
Medium: in vitro
Tested at: not given
Setting: RNA with constant flanks, human and mouse sites, ends assumed
Relative to: input RNA pool
Reading: higher = stronger binding
Constant ends, left off below: GGGAGUUCUACAGUCCGACGAUC … CAACAGAGGAUUGAGCAUCA
The bound/input enrichment of `AUCAUGUAUCUGUUUUGUCCCAUAAUAUGCUUUUUACUCCCUGAUCCCAGUUUCUGCUGUUGACUCUUCCAUUCAGUUUUAUUUAUUGUGUGUUCUCACAGUGACACCAUUUGUCCUUUU` is reported as 0.839 ratio.
With `GUGGUUCUGGUCACCGUCGCUGCCAUUGUUAGAAAGAUUUUUAAUGAUAUGCGGGGUGUCGUAGCUAAACAACGGACACAUACAAGAAAACAACAAUUUGAACAUGGAGAGUUGGUUUAC` the bound/input enrichment was 0.723 ratio.
For `GUUUUCAUGCCCGGCCUUUGUUCCCCCCGUCCAUGUGUCCUUUAGUUUCAAACAGAUCUUUAUAGUUUGUGCUUCAUAAGCCAAUUCUUAUUAUGAUUUUGGGGGACUGUUCUUCAAAGA`, the bound/input enrichment was 0.614 ratio.
With `AUCACUACGUGGAGGGGAAAGAGGCAGCUCCCACCUGGCACCCAUUGCACAUAGGCUCCCCAGGAGGACAGAUCAUCAUCCACGGCUCACCUGUGCCUGGGCACAUCUUGGAGAGCUUGU` the bound/input enrichment was 0.119 ratio.
With `GAUAGACCUCAAUAAAAGACAUAAUAUUUCUCCACCUGGCAGAAAAGUAACUGCCAAGUAAGAUUAAGAAAUAAGUUGAGCAUUUCUGGAGUAUAUUUCUCAUAAUUCUGCAGAGACUUC` the bound/input enrichment was 0.393 ratio.
With `GUCUCCAUUUUGUCAGCCAUGGAGCUCAUUUGGAACCUGUGUGAGAUUCUCUUUAUUGAAGUAGCACCAGCUGGCCCUCUCCUCCUUCACCUUCUUGACUGGGUCCGACUGCACGUGUGC` the bound/input enrichment was 0.281 ratio.
`CCUGCCUCACCAGUUGGUACACUGUUUUCUGAAAGAGGUGGGAUCCAAAAGAGCUGUUUCUAGCUGCACUCCAAGCAUCUGAGACUUUGGGCACAAGGACACUUUUCUUUUCUUUUUUUU` has a bound/input enrichment of 0.298 ratio.
`GUCCCAGGCUCUCUGUUGACAGAGUUGGCUCUCUAGAGUCUCGUACUUUAUUCAUAAAUCUAGUAGGAGCGAGGACACAUUAGUAGAUGCAGAAGUGAAAUGUUUUCACUGUCACUGUGA` has a bound/input enrichment of 2.56 ratio.
The bound/input enrichment of `UACCUUGAAAGAAGAAAAGGUUCUUACUGCUUGGUCCUUGAUUUAUCACACAAAGCAGAAUAGUAUUUUUAUAUUUAAAUGUAAAGACAAAAAACUAUAUGUAUGGUUUUGUGGAUUAUG` is reported as 1.76 ratio.
The bound/input enrichment of `UGGUGGAGAUCCCCGCCCCUCAGGACUAUUGGGGCCCUGUAUUUGCCAUCUGCAUCUUCCUUUUUUCCUUCAUCAUCCCGGUUCUGAUCAUCUCUGUCUGCUACAGCCUCAUGAUUCGAC` is reported as 0.361 ratio.
`AGAGUUACCCCAAAGGAAUGGAGGAAUCAGUAAUCAUCCCAGCUGGUGUAAUAAUGAAUUGUUUAAAAAACAGCUCAUAAUUGAUGCCAAAUUAAAGCACUGUGUACCCAUUAAGAUAUG` has a bound/input enrichment of 0.142 ratio.

For quick reference, copied from above (study 2):
The E-score of `AGGAAGTG` is reported as -0.117.
With `AGAAACAA` the E-score was -0.16.
With `ATTATCCC` the E-score was -0.191.
For `CAACAAAC`, the E-score was -0.0064.
`GATACGAA` has an E-score of -0.157.
`AGCCAGTC` gave an E-score of -0.155.
`GATCAACA` gave an E-score of -0.105.
For `GAGCAGCC`, the E-score was -0.0831.
`GCCGTGAC` gave an E-score of 0.357.
